Measured values collected from several papers.
Numbered parts are unrelated; each lists some results of a single study.

Block 1
Target: Sal-like protein 4, full length isoform A (SALL4, Homo sapiens, UniProt Q9UJQ4, residues 1-1053)
UniProt Q9UJQ4, sequence (whole entry, looked up): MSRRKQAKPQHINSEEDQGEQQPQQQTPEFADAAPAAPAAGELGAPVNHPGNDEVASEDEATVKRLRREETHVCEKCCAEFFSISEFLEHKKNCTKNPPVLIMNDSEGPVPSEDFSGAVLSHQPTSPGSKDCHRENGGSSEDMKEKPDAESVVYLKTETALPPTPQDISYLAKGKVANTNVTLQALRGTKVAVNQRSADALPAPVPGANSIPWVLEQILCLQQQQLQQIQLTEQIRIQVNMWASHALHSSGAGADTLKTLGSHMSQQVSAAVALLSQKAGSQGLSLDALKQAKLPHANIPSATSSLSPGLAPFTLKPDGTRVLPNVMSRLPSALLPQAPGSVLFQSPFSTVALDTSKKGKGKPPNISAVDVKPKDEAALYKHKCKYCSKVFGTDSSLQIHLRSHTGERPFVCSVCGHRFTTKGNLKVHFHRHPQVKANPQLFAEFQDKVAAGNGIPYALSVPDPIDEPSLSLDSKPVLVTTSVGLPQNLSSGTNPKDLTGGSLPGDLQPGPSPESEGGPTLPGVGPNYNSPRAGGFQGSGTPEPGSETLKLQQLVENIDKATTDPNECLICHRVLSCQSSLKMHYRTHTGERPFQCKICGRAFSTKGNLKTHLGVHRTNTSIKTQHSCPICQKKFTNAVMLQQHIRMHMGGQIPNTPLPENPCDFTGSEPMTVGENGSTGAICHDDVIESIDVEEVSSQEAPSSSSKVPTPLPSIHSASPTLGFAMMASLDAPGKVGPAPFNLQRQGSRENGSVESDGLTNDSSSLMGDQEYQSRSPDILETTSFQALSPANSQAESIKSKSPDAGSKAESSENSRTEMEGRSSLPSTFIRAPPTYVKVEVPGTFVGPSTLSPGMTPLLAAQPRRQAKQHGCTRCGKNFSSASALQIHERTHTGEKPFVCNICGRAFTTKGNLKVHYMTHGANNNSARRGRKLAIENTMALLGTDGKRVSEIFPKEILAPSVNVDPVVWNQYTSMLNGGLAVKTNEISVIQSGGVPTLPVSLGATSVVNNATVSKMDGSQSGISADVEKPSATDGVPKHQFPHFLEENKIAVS
Technique: universal PBM
Form: double-stranded DNA, one strand shown
Matrix: in vitro
Concentration: 600 nM
Notes: 8-mer, flanks averaged, mean of replicates
Reading: higher = stronger binding
Endpoint: E-score
CTAAAAAG: 0.194
CACTGACG: -0.212
GTCTGGCA: -0.0863
AAAGGATA: 0.257
AGTACTGC: -0.129
CATGAACC: 0.00428
CAAATGCC: -0.194
GTCTTTAA: 0.168

Block 2
Target: RNA binding protein fox-1 homolog 2, RRM domain, GST-SBP tag (RBFOX2, Homo sapiens, UniProt O43251-10, residues 100-194)
Technique: RNA Bind-n-Seq
Form: RNA
Matrix: in vitro
Concentration: 365 nM
Notes: natural RNA segment, single round, ends assumed
Reference: no-protein control
Reading: higher = stronger binding
Endpoint: RBNS enrichment (R)
Shared flanks, not repeated: GGGAGUUCUACAGUCCGACGAUC … UGGAAUUCUCGGGUGCCAA
Residues (chain): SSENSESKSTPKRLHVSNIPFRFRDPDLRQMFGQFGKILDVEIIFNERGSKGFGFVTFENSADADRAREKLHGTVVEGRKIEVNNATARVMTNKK
CAGAGCUGGUCUUUGGGCUGUGUUCCUUGCCCAGGUUUCUGCAUCUUGCACUUUGACAUUCCCAGGAGGGAAGUGACUAGUGGAAGGGAGAGAGGAAGGGGAGGCAGAGA: 0.613
GCCCGCAUCGUGCAGACAACCUCAGUCCUCUUGUCUAUUUUCUCUUGGGUUGAGCCUGUGACUUGGUUUCUCUUUGUCCUUUUGGAAAAAUGACAAGCAUUGCAUCCCAG: 1.18
GUCACACUGGAAAUUGUACAUUUUUUUAAAGAAAAGGUAUAGUUUUAUAACUGAGAUGUACCUAAAUUAUGACCAUUUGGUUUAUGAAUAUUCUACUGUGACAUGAAAAG: 0.473
AAGUAUAAAUGAAGUCAUAAAAUGUUUCAAUGUUUUGCUGAGUACCUGUUUGUAUUUAUAAAAAACAUGAACACAGGUCCUAAUAAAGAGAUGCCUAAGGCGGUAACUCU: 0.364
AAGGCAGAGCUGGGAUGAAAACAGGGCUGAAAAGACUCAGGGCCAAUUAUUGGCUGAGCCCACGGUCCCCUCAGCAGGGAUGCGAUGGUCUCUGAAUCAGUGUGCAGCUG: 0.503
CAAGUGGACCCCUUCAAAAGGCUACCGCUUAGCUCCGAACAAAAGGAUCAGUCGUGGGCAGGACUCACAUACCUCAGCUCUGGAGGAGCUAGCACUGUCUGGAAUGGCCU: 0.37
UAUGUGAUGUUGUUAAUUUCUUUUAUUGCAUUAUAAAAUAAAAGGAUUAUGUAUUUUUAACUAAGGUGAGACAUUGAUAUAUCCUUUUGCUACAAGCUAUAGCUAAUGUG: 1.7
AGGGCCCUAACCUUCAGGGGUGGGGACACAAUUAAAGGAAGGGAAUGUAUAAAGAAAUUAUUCUUCAUUCCAAUAUAUGAAGAUACUUGCCUUUUCAGCAGCGAUGGUCU: 0.328

Block 3
Cell line: HEK-293T
Effect on: pseudovirus infection
Technique: FDA-approved drug library screen
Organism: VSV pseudotyped with SARS-CoV-2 spike
Concentration: 10 µM
Time: 16 h
Reference: vehicle-treated
Endpoint: GFP-positive cells
O=C1c2c(O)ccc(O)c2C(=O)c2c(NCCNCCO)ccc(NCCNCCO)c21: 113%
CC[C@]1(O)C[C@H]2CN(CCc3c([nH]c4ccccc34)[C@@](C(=O)OC)(c3cc4c(cc3OC)N(C=O)[C@H]3[C@@](O)(C(=O)OC)[C@H](OC(C)=O)[C@]5(CC)C=CCN6CC[C@]43[C@@H]65)C2)C1: 11%
O=C(OCc1ccccc1)c1ccccc1: 103%
Cc1nc(Nc2ncc(C(=O)Nc3c(C)cccc3Cl)s2)cc(N2CCN(CCO)CC2)n1: 69%

Block 4
Target: Ras GTPase-activating protein-binding protein 1, full length (G3BP1, Homo sapiens, UniProt Q13283)
UniProt Q13283, sequence (whole entry, looked up): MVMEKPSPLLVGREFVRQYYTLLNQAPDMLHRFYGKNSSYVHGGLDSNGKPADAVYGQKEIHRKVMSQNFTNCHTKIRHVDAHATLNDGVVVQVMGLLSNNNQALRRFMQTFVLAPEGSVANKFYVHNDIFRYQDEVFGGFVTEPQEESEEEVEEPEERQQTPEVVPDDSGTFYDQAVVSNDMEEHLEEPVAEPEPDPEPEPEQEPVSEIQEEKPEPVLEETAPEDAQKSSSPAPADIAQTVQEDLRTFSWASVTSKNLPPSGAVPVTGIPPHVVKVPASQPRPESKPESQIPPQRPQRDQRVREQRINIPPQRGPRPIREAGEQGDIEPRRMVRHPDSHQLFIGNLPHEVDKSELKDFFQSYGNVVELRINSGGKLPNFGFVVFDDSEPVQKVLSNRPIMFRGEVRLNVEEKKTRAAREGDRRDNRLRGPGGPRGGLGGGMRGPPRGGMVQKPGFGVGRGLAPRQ
Technique: RNA Bind-n-Seq
Form: RNA
Matrix: in vitro
Concentration: 200 nM
Notes: whole 134-nt RNA, ends assumed
Together with: 150 mM KCl
Reference: input library
Reading: higher = stronger binding
Endpoint: log2 enrichment
GGGAGUUCUACAGUCCGACGAUCUGGGAGGUGGAUUUUGUUUAUUUUUUUAGCUCAUUUCCAGGGGUGGGAAUUUUUUUUUAAUAGGUGUCAUGAAUAAAGUUGUUUUUGAAAUGGAAUUCUCGGGUGUCAAGG: -0.0775
GGGAGUUCUACAGUCCGACGAUCCACAGACAACACGCACCCACACAGACAAAAAGGGAAGGGGUUGGGAUGGGGACAGGGUGCACAGCAGGGCGGGGUAGGACCCCAGCCCCUUGGAAUUCUCGGGUGUCAAGG: 1.84
GGGAGUUCUACAGUCCGACGAUCCUGUGCUACACAUCGUAUGUACCGAAUCGGGGAAAAAAAGGGGAAAAAGGGGUUUUUGGGGAAAGUAUUAUGUUACGCCGUUCGGAUCUGUGGAAUUCUCGGGUGUCAAGG: 0.0438
GGGAGUUCUACAGUCCGACGAUCAGUCCUGUGCUACACAUCGUAUGUACCGAAUCGGGGAGGGGUUUUUUUGGGGUGGGGAAAGUAUUAUGUUACGCCGUUCGGAUCUGCACUUGGAAUUCUCGGGUGUCAAGG: 0.768

Block 5
Target: Replicase polyprotein 1ab, main protease (rep, Severe acute respiratory syndrome coronavirus 2, UniProt P0DTD1)
Effect on: enzyme activity
Concentration: 20 µM
Notes: with DTT
Endpoint: inhibition
O=C(O)c1cc(N2N=C(C(F)(F)F)/C(=C/c3ccc(-c4ccccc4)o3)C2=O)ccc1Cl: 35.4%
COc1ccc(OC)c2c(=S)c3ccccc3[nH]c12: -11.4%
NC(=S)N/N=C/c1coc2ccccc2c1=O: 2.3%
O=C(c1ccc(Cl)cc1)c1cc([N+](=O)[O-])ccc1N1CCOCC1: 60.3%

Block 6
Target: Replicase polyprotein 1ab, polymerase (rep, Severe acute respiratory syndrome coronavirus 2, UniProt P0DTD1)
Effect on: enzyme activity
Mode: inhibitor
Concentration: 20 µM
Endpoint: inhibition
CN1C(=O)N(c2cc(Cl)cc(Cl)c2)C(=O)[C@@]1(C)Cc1ccc(Br)cc1: 3.79%
C[N+]1(CCCCC[N+]2(C)CCCC2)CCCC1: -1.78%
Cc1ccc(S(=O)(=O)/C=C/C#N)cc1: 0.25%
O=C1S/C(=C\c2ccc(OCc3cccc(B(O)O)c3)cc2)C(=O)N1Cc1ccc(F)cc1: -2.25%
CCC(=O)NC[C@H](Cc1ccc(OCCc2nc(-c3ccccc3)oc2C)cc1)N/C(C)=C\C(=O)c1ccc(C(F)(F)F)cc1: -3.43%
NC(=O)c1cc(N2CC2)c([N+](=O)[O-])cc1[N+](=O)[O-]: 0.65%
O=C(O)C1(c2ccc(-c3ccc(Cl)c(Cl)c3)c(F)c2)CC1: 1.47%
NCCCCCC(O)(P(=O)(O)O)P(=O)(O)O: 0.19%
COc1ccc(S(=O)(=O)Nc2cc(Cl)cc(Cl)c2OC)cc1N1CCNCC1: -15.5%
CN(C)C/C=C/C(=O)Nc1cc2c(Nc3ccc(F)c(Cl)c3)ncnc2cc1O[C@H]1CCOC1: 4.78%
O=c1c(-n2ccnn2)c[nH]n1-c1cc(N2CCOCC2)ncn1: 22.3%
N[C@@H](CC(=O)N1CCn2c(nnc2C(F)(F)F)C1)Cc1[nH]nc2c(F)c(F)ccc12: 44.6%
Cc1ccc2c(=O)c3ccccc3n(CCCN)c2c1C: -30.5%
CC(C)=CCOc1ccc(/C=C/C(=O)c2ccc(OCC=C(C)C)cc2OCC(=O)O)cc1: 5.54%
CCCCCCCCCCCC(=O)O: -0.09%
C[C@@H]1CN(Cc2ccc(F)cc2)[C@@H](C)CN1C(=O)c1cc2c(C(=O)C(=O)N(C)C)cn(C)c2cc1Cl: 1.67%
O=[N+]([O-])c1ncc[nH]1: 0.73%
O=C(O)/C=C/c1ccc(O)c(O)c1: 5.69%
COC(=O)C(N)CS (stereo not shown): 5.08%
CCc1c2c(nc3ccc(O)cc13)-c1cc3c(c(=O)n1C2)COC(=O)[C@]3(O)CC: 3.96%
CC(=O)N[C@@H](CC(=O)N[C@@H](CCC(=O)O)C(=O)O)C(=O)O: 0.33%

Some of these lines once more (block 6):
CN1C(=O)N(c2cc(Cl)cc(Cl)c2)C(=O)[C@@]1(C)Cc1ccc(Br)cc1: 3.79%
C[N+]1(CCCCC[N+]2(C)CCCC2)CCCC1: -1.78%
Cc1ccc(S(=O)(=O)/C=C/C#N)cc1: 0.25%
O=C1S/C(=C\c2ccc(OCc3cccc(B(O)O)c3)cc2)C(=O)N1Cc1ccc(F)cc1: -2.25%
CCC(=O)NC[C@H](Cc1ccc(OCCc2nc(-c3ccccc3)oc2C)cc1)N/C(C)=C\C(=O)c1ccc(C(F)(F)F)cc1: -3.43%
NC(=O)c1cc(N2CC2)c([N+](=O)[O-])cc1[N+](=O)[O-]: 0.65%
